Published values from different studies.
A part holds a random share of what one study measured. Substitutions count along the parent as printed.

Study 1
Target: Fragile X messenger ribonucleoprotein 1, C-terminal low-complexity region (Fmr1, Mus musculus, UniProt P35922)
Technique: RNA Bind-n-Seq
Molecule type: RNA
Matrix: in vitro
Tested at: 200 nM
Setting: whole 134-nt RNA, ends assumed
With: 150 mM LiCl
Baseline: input library
Reading: higher = stronger binding
All molecules: 7-deaza-guanosine replaces G
Constant ends, left off below: GGGAGUUCUACAGUCCGACGAUC … UGGAAUUCUCGGGUGUCAAGG
With `UGGGAGGUGGAUUUUGUUUAUUUUUUUAGCUCAUUUCCAGGGGUGGGAAUUUUUUUUUAAUACGUGUCAUGAAUAAAGUUGUUUUUGAAA` the log2 enrichment was -0.171.
`GUCCUGUGCUACACAUCGUAUGUACCGAAUCAAAUUUUUUUAAACCCAAACCCCCAAAAAAGUAUUAUGUUACGCCGUUCGGAUCUGCAC` gave a log2 enrichment of 0.895.
For `ACCAUGCAGGUGGGCAUCUUUGGGAAGUGGGGCAAGGGGGGGUUAGGGAGGGGGGUAACACUUUGGGAACAGGUGGUCCCAGGUCGUUUC`, the log2 enrichment was 0.97.
For `AGUCCUGUGCUACACAUCGUAUGUACCGAAUCGGGGUUUUGGGUUUUGGGUUUUGGGGAAAGUAUUAUGUUACGCCGUUCGGAUCUGCAC`, the log2 enrichment was -0.642.
With `UGGCCCUGGUUGCAUGCGGGGAGGAAGAGGUGGCCUCAUGGAUCGUGGUGGUCCCGGUGGAAUGUUCAGAGGUGGCCGUGGUGGAGACAG` the log2 enrichment was 0.211.
For `AAGUCCUGUGCUACACAUCGUAUGUACCGAAUCAAAUUUUUAAAUUUAAAUUUAAAAAAGUAUUAUGUUACGCCGUUCGGAUCUGCACUU`, the log2 enrichment was -3.39.
The log2 enrichment of `AAGUCCUGUGCUACACAUCGUAUGUACCGAAUCGGGGUUUGGGUUUGGGUUUGGGGAAAGUAUUAUGUUACGCCGUUCGGAUCUGCACUU` is reported as -1.13.
`CCUGUGCUACACAUCGUAUGUACCGAAUCGGGUUUUUUUGGGUUUUUUUGGUUUUUUUGGAAAGUAUUAUGUUACGCCGUUCGGAUCUGC` has a log2 enrichment of 0.0585.

Study 2
Target: Histone acetyltransferase KAT6A, both winged helices, GST fusion (KAT6A, Homo sapiens, UniProt Q92794, residues 1-181)
Technique: protein binding microarray
Molecule type: double-stranded DNA, one strand shown
Matrix: in vitro
Tested at: not given
Setting: 8-mer, flanks averaged, mean of 2 arrays, mostly near background
Baseline: not given
Reading: higher = stronger binding
Residues (chain): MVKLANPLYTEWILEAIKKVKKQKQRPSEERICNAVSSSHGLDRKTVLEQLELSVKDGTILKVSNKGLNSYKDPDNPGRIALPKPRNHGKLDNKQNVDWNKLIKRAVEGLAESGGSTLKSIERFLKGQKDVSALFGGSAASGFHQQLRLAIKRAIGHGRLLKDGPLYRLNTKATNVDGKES
With `CGTGAGCC` the E-score was 0.128.
For `AGTGTGCC`, the E-score was -0.142.
`GTCTAAAC` has an E-score of -0.0937.
For `CCCACTGA`, the E-score was -0.194.
`CTGCGCGC` has an E-score of 0.375.
For `GTATTCCA`, the E-score was 0.0445.
For `ACGTCTTG`, the E-score was -0.0185.
The E-score of `GCGGCTAA` is reported as 0.307.

Study 3
Target: RNA binding protein fox-1 homolog 2, RRM domain, GST-SBP tag (RBFOX2, Homo sapiens, UniProt O43251-10, residues 100-194)
Technique: RNA Bind-n-Seq
Molecule type: RNA
Matrix: in vitro
Tested at: 365 nM
Setting: natural RNA segment, single round, ends assumed
Baseline: no-protein control
Reading: higher = stronger binding
Constant ends, left off below: GGGAGUUCUACAGUCCGACGAUC … UGGAAUUCUCGGGUGCCAA
Residues (chain): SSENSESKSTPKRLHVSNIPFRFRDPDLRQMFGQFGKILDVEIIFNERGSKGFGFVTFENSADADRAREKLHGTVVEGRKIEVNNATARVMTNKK
`AGAUGGUGGAGAUUGGCAUGCCAUUGAAACUAAGAGCUCUCAAGUCAAGGAAGCUGGGCUGGGCAGUAUCCCCCGCCUUUAGUUCUCCACUGGGGAGGAAUCCUGGACCA` — result for “RBNS enrichment (R)”: 0.858.
`GAUUAUGAGCGUUAAUGUACGAAAUGUGCAGAGCAAAUUGAGGCCAACUGUGGCAUCAAUACUGCAACUUAAACUUGACAAUCAUGGUUUGCUGGUCCUCAAACAGGCAC`: “RBNS enrichment (R)” 0.323.
`GAACUCUUUCAAAACCUUUUGAAAUUAACCUCUCACUAUACCAGUAUAAUUGAGUUUUCAGUGGGGCAGUCAUUAUCCAGGUAAUCCAAGAUAUUUUAAAAUCUGUCACG` — result for “RBNS enrichment (R)”: 0.632.
`ACCGGGUAUACCCUUUUCUUUAGCACUGCUAUCCUUUUUGUCUUCAGCACAAAUAAGAUGUUCAAGUGAGCCAGAAGCAAGAAGAGCCAUUUUAGUCUUCAUAGCUAUUG`: “RBNS enrichment (R)” 0.287.
For `GUCCUCAAAGCCUUCUGUCUGUAUCAGGAAUGUAGUCUGAGACUGCCAGGAAGCAACAAGGAGAGAGAAACACUAACUAGUCUUCCUUUAUAACCCAUUCAUACUCUCUG`, “RBNS enrichment (R)” read 0.632.
`CUUUUCUUUCUCACCCUCUUUGACCCAGAUUUUAUAGAGCGAGUUUCUCAACCUCUGCACAGUUGACAUUUUGAGCCAAAUUAUUCUUUGUUGUGGUAGGCAGUCCUGUG` — result for “RBNS enrichment (R)”: 0.808.
Under “RBNS enrichment (R)”, `AUAAUGUUCACUUUUUAUAGUGUGUCCUUUAUUCUAAACAGUAAAGUGGUUUUAUUUCUAUCACACAUCUGCUGUCUCUUGCCUUGUUGUGUUCUGACGCCACGGGGAGU` is recorded as 0.785.
`UAACUGUAAAAGGCCCCUACACGUGACGCCAUCUGGACACCCACUCUGGCGGGGGUGGCACCACCCACCGCCGUCCUGGGAAGCCAUCACCGCUCAUCUGUGCCCGCGGC`: “RBNS enrichment (R)” 0.361.

Other studies, line by line
Starting sequence: PafA, mature enzyme, eGFP fusion (Elizabethkingia meningoseptica, UniProt Q9KJX5); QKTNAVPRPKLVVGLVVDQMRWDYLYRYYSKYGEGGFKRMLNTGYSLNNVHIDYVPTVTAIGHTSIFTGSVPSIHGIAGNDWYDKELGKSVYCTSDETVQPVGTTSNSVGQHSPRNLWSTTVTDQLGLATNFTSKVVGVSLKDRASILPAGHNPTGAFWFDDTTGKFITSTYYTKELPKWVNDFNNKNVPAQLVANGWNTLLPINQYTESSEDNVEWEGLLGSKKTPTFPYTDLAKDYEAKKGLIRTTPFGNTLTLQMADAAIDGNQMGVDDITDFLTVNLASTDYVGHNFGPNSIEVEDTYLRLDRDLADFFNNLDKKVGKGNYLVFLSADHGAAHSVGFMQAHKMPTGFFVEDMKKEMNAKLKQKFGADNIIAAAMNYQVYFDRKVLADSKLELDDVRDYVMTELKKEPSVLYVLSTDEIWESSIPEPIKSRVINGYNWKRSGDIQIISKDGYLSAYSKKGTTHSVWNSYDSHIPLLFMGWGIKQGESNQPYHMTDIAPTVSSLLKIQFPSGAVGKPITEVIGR
`R144V` — result for “phosphate dissociation constant”: > 133 mM (inorganic phosphate, free oxyanion; microfluidic competitive inhibition; in vitro, cell-free expressed; not given, derived from inhibition constants, unchanged parent 615000 nM; lower = stronger binding).
